Results gathered from unrelated publications.
Numbered parts are unrelated; each lists some results of a single study. Changes are numbered by the printed parent chain.

Set 1 — method: protein-binding microarray; molecule type: double-stranded DNA, one strand shown; sample: in vitro; concentration: not given; direction: higher = stronger binding; quantity: E-score
Target: Protein C-ets-1 (ETS1, Homo sapiens, UniProt P14921, residues 1-441, full length assumed)
Setting: k-mer, scored over probes, only values ≥0.25
Target sequence (chain): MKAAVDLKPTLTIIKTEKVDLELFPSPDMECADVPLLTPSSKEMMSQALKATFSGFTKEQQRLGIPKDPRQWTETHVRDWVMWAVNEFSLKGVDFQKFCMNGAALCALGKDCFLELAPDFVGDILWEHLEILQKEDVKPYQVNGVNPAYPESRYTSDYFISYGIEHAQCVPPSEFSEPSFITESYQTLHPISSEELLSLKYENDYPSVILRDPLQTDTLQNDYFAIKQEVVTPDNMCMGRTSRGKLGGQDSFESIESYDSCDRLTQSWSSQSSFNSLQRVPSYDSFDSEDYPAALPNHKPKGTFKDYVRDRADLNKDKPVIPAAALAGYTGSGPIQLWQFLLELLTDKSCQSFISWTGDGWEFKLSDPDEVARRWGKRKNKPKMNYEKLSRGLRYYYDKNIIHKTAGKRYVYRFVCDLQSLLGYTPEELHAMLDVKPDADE
Strand = CTGTTTCC; result = 0.427
Strand = ATGCCGGA; result = 0.433
Strand = ATCCTATG; result = 0.276
Strand = ACCATCCT; result = 0.28
Strand = CTCGGAAG; result = 0.317
Strand = AAATATCC; result = 0.301
Strand = ACGTCCGG; result = 0.479
Strand = CAGGACAC; result = 0.257
Strand = TCACGGAA; result = 0.259
Strand = GGAAAAAA; result = 0.273
Strand = ATTCCGGA; result = 0.425
Strand = ATCCGTTA; result = 0.35
Strand = AGGAAGCG; result = 0.454
Strand = CTACGTCC; result = 0.267
Strand = AACATCCT; result = 0.449
Strand = ATAGGATG; result = 0.339
Strand = AGCGGAAA; result = 0.472
Strand = CCTTCCGC; result = 0.46
Strand = GGGGAGGA; result = 0.3
Strand = TAAGCGGA; result = 0.343
Strand = GGAAGTCA; result = 0.44

Set 2 — method: RNA Bind-n-Seq; molecule type: RNA; sample: in vitro; concentration: 1 µM; setting: whole 134-nt RNA, ends assumed; together with: 150 mM KCl; reference: input library; direction: higher = stronger binding; quantity: log2 enrichment
Target: Ras GTPase-activating protein-binding protein 1, C-terminal RGG region (G3BP1, Homo sapiens, UniProt Q13283)
Constant ends, left off below: GGGAGUUCUACAGUCCGACGAUC … UGGAAUUCUCGGGUGUCAAGG
Strand = GCAGGAAGUAAAAACAAAUGGAAAUGCUUCGGAUAGUGGCAGGGGUGGGGGUUGCUAAGGAAAGGGUGGGAUGGGAGUGGGUAAAGAGCU; result = 1.67
Strand = CCUCAAGUCCUGUGCUACACAUCGUAUGUACCGAAUCGGGAGGGAGGGGAGGGAAAGUAUUAUGUUACGCCGUUCGGAUCUGCACUUCCA; result = 2.63
Strand = GUCAAGUGCUUCUGCUCCUGAUGUGGAUGACCCAGAGGCAUUCCCAGCUCUGGCUUAACUGGAUGCCAUAAGACAACCCUGGUUCCUUUG; result = 0.379
Strand = UCCUGUGCUACACAUCGUAUGUACCGAAUCGGGCCCCCCGGGGCCCCCCGGCCCCCCGGAAAGUAUUAUGUUACGCCGUUCGGAUCUGCA; result = -0.997
Strand = AAGUCCUGUGCUACACAUCGUAUGUACCGAAUCGGGAAAGGGGAAAGGGGAAAGGGAAAGUAUUAUGUUACGCCGUUCGGAUCUGCACUU; result = 1.13
Strand = UGGGAGGUGGAUUUUGUUUAUUUUUUUAGCUCAUUUCCAGGGGUGGGAAUUUUUUUAUAAUAUGUGUCAUGAAUAAAGUUGUUUUUGAAA; result = 2.95
Strand = ACCAUGCAGGUGGGCAUCUUUGGGAAGUGGGGCAAGGGGGGGAUAGGGAGGGGUGUAACACUUUGGGAACAGGUGGUCCCAGGUCGUUUC; result = 2.23
Strand = GCAGGAAGUUAAAACAAAUGGAAAUGCUUCGGAUAGUGGCAGGGGUGGGGGUUGCUAAGGAAAGGGUGGGAUGGGAGUGGGUAAAGAGUU; result = 1.75
Strand = UCAAGUCCUGUGCUACACAUCGUAUGUACCGAAUCGGAAAGGUGGAAAAAAAGGAAAGUAUUAUGUUACGCCGUUCGGAUCUGCACUUCC; result = -1.76

Set 3 — target: UBE2I UBC core domain (UniProt P63279); method: yeast two-hybrid; sample: yeast; setting: mostly zero background; reference: not given; direction: higher = stronger interaction; quantity: lacZ reporter activity
B1: CBLL1 RING domain (UniProt Q75N03); chain GEKDDTPVHFCDKCGLPIKIYGRMIPCKHVFCYDCAILHEKKGDKMCPGCSDPVQRIEQCT
B2: TRIM68 RING domain (UniProt Q6AZZ1); chain LVEAIVEEVACPICMTFLREPMSIDCGHSFCHSCLSGLWEIPGESQNWGYTCPLCRAPVQPRNLRP
B3: UBE4B RING domain (UniProt O95155); chain KNARAEIDYSDAPDEFRDPLMDTLMTDPVRLPSGTIMDRSIILRHLLNSPTDPFNRQTLTESMLEPVPELKEQIQAWMREKQNSDH
B4: RNF10 RING domain (UniProt Q8N5U6); chain VRICSHEVPSCPICLYPPTAAKITRCGHIFCWACILHYLSLSEKTWSKCPICYSSVHKKDLKS
B5: RNF7 RING domain (UniProt Q9UBF6); chain AICRVQVMDACLRCQAENKQEDCVVVWGECNHSFHNCCMSLWVKQNNRCPLCQQDWVVQRIGK
B6: ARIH1 RING domain (UniProt Q9Y4X5); chain NTRSSAQDMPCQICYLNYPNSYFTGLECGHKFCMQCWSEYLTTKIMEEGMGQTISCPAHGCDILVDDNTVM
Sequence = GSEEEEIPFRCFICRQAFQNPVVTKCRHYFCESCALEHFRATPRCYICDQPTGGIFNPA (RNF113B RING domain (UniProt Q8IZP6)); result = 0
Sequence = B1 (CBLL1 RING domain); result = 0
Sequence = FLSKVEETFQCICCQELVFRPITTVCQHNVCKDCLDRSFRAQVFSCPACRYDLGRSYAMQ (UHRF1 RING domain (UniProt Q96T88)); result = 0
Sequence = B2 (TRIM68 RING domain); result = 0
Sequence = B3 (UBE4B RING domain); result = 0
Sequence = EDVLSKDAGECAICLEELQQGDTIARLPCLCIYHKGCIDEWFEVNRSCPEHPSD (ZNRF2 RING domain (UniProt Q8NHG8)); result = 0
Sequence = B4 (RNF10 RING domain); result = 0
Sequence = B5 (RNF7 RING domain); result = 0
Sequence = B6 (ARIH1 RING domain); result = 0

Set 4 — method: DHFR PCA, deep sequencing; sample: yeast; together with: (+)-ABA 710 µM; reference: wild-type fitted maximum; direction: higher = stronger binding; quantity: relative binding score
Target: ABI1, truncated, D143A, DHFR fusion (Arabidopsis thaliana)
Setting: methotrexate growth selection, single substitutions
Starting sequence: PYL1, truncated, DHFR fusion (Arabidopsis thaliana); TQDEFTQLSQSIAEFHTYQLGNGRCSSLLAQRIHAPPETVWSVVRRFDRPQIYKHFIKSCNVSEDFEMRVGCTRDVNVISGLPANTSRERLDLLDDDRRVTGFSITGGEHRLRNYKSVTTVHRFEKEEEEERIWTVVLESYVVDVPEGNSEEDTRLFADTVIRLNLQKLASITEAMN; partner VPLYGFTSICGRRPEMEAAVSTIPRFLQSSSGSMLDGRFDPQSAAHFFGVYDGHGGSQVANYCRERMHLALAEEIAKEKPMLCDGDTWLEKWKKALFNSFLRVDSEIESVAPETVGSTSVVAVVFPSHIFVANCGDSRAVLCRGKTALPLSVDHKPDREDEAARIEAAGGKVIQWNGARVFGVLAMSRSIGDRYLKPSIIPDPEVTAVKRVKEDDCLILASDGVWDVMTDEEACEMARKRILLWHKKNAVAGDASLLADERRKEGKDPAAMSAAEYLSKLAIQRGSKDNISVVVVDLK
Substitution = R111D; result = 53.3%
Substitution = F66A; result = 99.9%
Substitution = R88F; result = 107%
Substitution = I79L; result = 89.3%
Substitution = P36N; result = 102%
Substitution = V78M; result = 97.3%
Substitution = V118D; result = 10.7%
Substitution = A84V; result = 31.4%
Substitution = V118G; result = -2.43%
Substitution = L112A; result = 10.8%
Substitution = E125M; result = 105%
Substitution = R113E; result = 106%
Substitution = E109Y; result = 91%
Substitution = E128C; result = 109%
Substitution = V76I; result = 108%
Substitution = R45K; result = 99.3%
Substitution = D95N; result = 104%
Substitution = C60T; result = 98.3%
Substitution = W41P; result = 9.22%
Substitution = I33H; result = -17.2%
Substitution = T17Q; result = 93.7%
Substitution = Q51E; result = 93.1%
Substitution = Q19I; result = 102%
Substitution = K58L; result = 93.3%
Substitution = Q167P; result = -8.14%

Set 5 — target: CCNA2, cyclin fold, Cln2 fusion (human); method: yeast growth competition, sequencing; sample: yeast; setting: strong parent motif; reference: not given; direction: higher = stronger binding; quantity: normalised enrichment score
Starting sequence: PKN2 docking peptide (human); VSAVRKLDFSDTM
Substitution = V4A; result = 5.46
Substitution = D11S; result = 5.35
Substitution = S10F; result = 5.08
Substitution = L7W; result = -0.163
Substitution = D11Y; result = 5.22
Substitution = L7G; result = 0.108
Substitution = V4K; result = 6.06
Substitution = S10I; result = 3.95
Substitution = F9T; result = 0.216
Substitution = V4H; result = 5.22
Substitution = S2Q; result = 5.23
Substitution = A3H; result = 4.68
Substitution = D8C; result = 5.25
Substitution = L7N; result = -0.18
Substitution = A3R; result = 3.01
Substitution = D11K; result = 5.34
Substitution = R5H; result = 0.823
Substitution = S10A; result = 5.32
Substitution = F9S; result = 0.236
Substitution = V4F; result = 5.44

Repeated from above (set 1):
Strand = ATGCCGGA; result = 0.433
Strand = CTCGGAAG; result = 0.317
Strand = GGAAAAAA; result = 0.273
Strand = AGCGGAAA; result = 0.472
Strand = GGAAGTCA; result = 0.44
Strand = ATCCGTTA; result = 0.35
Strand = CCTTCCGC; result = 0.46
Strand = TAAGCGGA; result = 0.343
Strand = AAATATCC; result = 0.301
Strand = ACGTCCGG; result = 0.479
Strand = ATCCTATG; result = 0.276
Strand = GGGGAGGA; result = 0.3
